Measurements gathered from unrelated publications.
Each numbered part is a random draw from the data of one study; scales do not carry over between parts. Values joined by “and” are separate records of one study, mostly repeats; a detail may differ.

Set 1
Organism: Plasmodium berghei
Action: inhibitor
Cells: Huh-7
Strain: GFP-expressing sporozoites, liver stage
Concentration: 10 µM
Time: 24 h
Baseline: untreated control
SMILES | infection rate
C[C@@H]1C[C@@H]([C@H](O)CC2CC(=O)NC(=O)C2)C(=O)[C@@H](C)C1 | 1.28%
CC(CC(C(N)=O)(c1ccccc1)c1ccccc1)N(C)C (stereo not shown) | 101%
CC(=O)Nc1cc([As](=O)(O)O)ccc1O | 86.4%

Set 2
Organism: Sarcocystis neurona
Effect on: parasite activity
Concentration: 10 µM
Time: 96 h
SMILES | activity class
c1cncc([C@@H]2CCCN2)c1 | inactive
C#CCN(C)[C@H](C)Cc1ccccc1 | inactive
O=C(O)C(Cl)Cl | inactive
CC(C)[C@]12O[C@H]1[C@@H]1O[C@]13[C@]1(O[C@H]1C[C@H]1C4=C(CC[C@@]13C)C(=O)OC4)[C@@H]2O | inactive
CN1C(=O)CN=C(c2ccccc2)c2cc(Cl)ccc21 | inactive
NC1=NC(=O)C(c2ccccc2)O1 (stereo not shown) | inactive
CCC1(c2ccc(N)cc2)CCC(=O)NC1=O (stereo not shown) | inactive

Set 3
Target: Sodium-dependent noradrenaline transporter (SLC6A2, Homo sapiens, UniProt P23975)
Sequence of UniProt P23975 (whole entry, looked up): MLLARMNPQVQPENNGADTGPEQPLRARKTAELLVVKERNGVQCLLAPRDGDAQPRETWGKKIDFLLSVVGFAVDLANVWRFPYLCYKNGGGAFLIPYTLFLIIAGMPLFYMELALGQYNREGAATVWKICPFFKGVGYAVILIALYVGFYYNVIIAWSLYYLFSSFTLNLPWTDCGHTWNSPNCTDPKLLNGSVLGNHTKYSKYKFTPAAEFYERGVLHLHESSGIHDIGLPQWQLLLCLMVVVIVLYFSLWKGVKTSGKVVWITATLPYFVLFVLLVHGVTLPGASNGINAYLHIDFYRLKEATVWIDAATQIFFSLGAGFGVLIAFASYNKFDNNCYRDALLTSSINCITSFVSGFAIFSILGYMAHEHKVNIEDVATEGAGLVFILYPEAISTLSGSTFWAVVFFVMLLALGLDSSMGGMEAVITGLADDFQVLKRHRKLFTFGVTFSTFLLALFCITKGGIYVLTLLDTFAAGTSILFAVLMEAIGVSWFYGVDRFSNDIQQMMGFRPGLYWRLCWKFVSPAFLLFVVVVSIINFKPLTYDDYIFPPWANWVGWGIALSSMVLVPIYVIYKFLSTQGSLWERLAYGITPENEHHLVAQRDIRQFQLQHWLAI
Effect on: cell-free assay
Concentration: 10 µM
Structure (SMILES) | inhibition [%]
Nc1cnc(N2CCc3cc(S(=O)(=O)Nc4c(F)cc(Cl)cc4F)cc(N4CCCC4=O)c32)nc1 | 18.2
Cc1c(NC(=O)c2cc(C(N)=O)nc3cc(F)ccc23)c(C(F)(F)F)nn1Cc1ccc(C#N)cc1 | -14.2
CN(C)c1ncnc(-c2ccc3nc(Nc4cc(CN5CCN(C(=O)CC(F)(F)F)CC5)ccn4)[nH]c3c2)c1Cl | -29.4
CO[C@H]1CC[C@H](CNc2ccc(S(=O)(=O)NC(=O)c3ccc(N4CCN(CC5=C(c6ccc(Cl)cc6)CC(C)(C)CC5)CC4)cc3Oc3cnc4[nH]ccc4c3)cc2[N+](=O)[O-])CC1 | 39.5
CN(C)C(=O)Cn1cc(-c2nc(C3(c4ccc(-c5cnc(N)nc5)cc4)CC3)no2)cn1 | 8.33
CC1=C(C#N)C(c2ccc3[nH]nc(C)c3c2)C(C#N)=C(C)N1 | -28.1
O=C(NNS(=O)(=O)c1ccccc1)c1cc(-c2ccnnc2)ccc1F | -2.4
C[C@H](c1ccc(F)cc1)N(Cc1cccc(C(=O)O)c1)C(=O)c1cnc2ccccc2c1 | 2.04
Cc1ccccc1Oc1cc(-n2c(=O)cc(C(F)(F)F)[nH]c2=O)c2ccccc2c1Cl | -1.01
O=C(NCCCC1CCCCC1)c1ccc(CNC(=O)c2cnn(-c3ccccc3)c2C(F)(F)F)cc1 | -1.78
FC(F)(F)c1ccc2c(c1)nc(-c1cccnc1)n2C1CC1 | 17.2
N#CC1(c2ccccn2)CCN(Cc2cc(C(=O)N3CCCC3)c(=O)n3ccccc23)CC1 | 40.5
O=C(Nc1ccc(Oc2ccc(F)cc2)cc1)N1CCc2ncccc2[C@H]1c1ccc(F)cc1 | 32.5
CN1CCN(c2ccnc(NCCc3ccccc3)n2)CC1 | 93.8

Set 4
SMILES: CC(C)S(=O)(=O)c1cc2c(Nc3ccc4sc(C5CCCC5)nc4c3)ccnc2cc1OCCO
Technique: CCK-8
cell line | setting | survival
L929 RIPK3-/- reexpressing RIPK3 K51A/R69H | 3.125 µM | 98.2% and 96.1% and 93% and 91.9% and 100%
L929 RIPK3-/- reexpressing RIPK3 K51A | 6.25 µM | 81.5% and 81.4% and 80.7% and 76.1% and 83.3%
L929 RIPK3-/- reexpressing RIPK3 K51A/R69H | 25 µM | 61.1% and 63.3% and 60.1% and 62.3%
L929 RIPK3-/- reexpressing RIPK3 K51A/R69H | 50 µM | 28.1% and 30.1% and 29.7% and 28.6% and 31.3%

For quick reference, copied from above (set 2):
SMILES | activity class
CN1C(=O)CN=C(c2ccccc2)c2cc(Cl)ccc21 | inactive
CC(C)[C@]12O[C@H]1[C@@H]1O[C@]13[C@]1(O[C@H]1C[C@H]1C4=C(CC[C@@]13C)C(=O)OC4)[C@@H]2O | inactive
c1cncc([C@@H]2CCCN2)c1 | inactive
